Results collected from several papers.
Compare with care: the assays were run in different laboratories. Numbers after ± are the reported error. ≈ marks a conversion by molar mass, not a printed value.

CC[C@H](C)[C@H](NC(=O)[C@H](CC(C)C)NC(=O)CNC(=O)[C@H](Cc1c[nH]cn1)NC(=O)[C@@H](NC(=O)[C@H](Cc1ccccc1)NC(=O)[C@H](CC(N)=O)NC(=O)[C@H](Cc1c[nH]c2ccccc12)NC(=O)[C@@H](NC(=O)[C@H](Cc1c[nH]cn1)NC(=O)[C@H](Cc1c[nH]cn1)NC(=O)[C@H](Cc1c[nH]c2ccccc12)NC(=O)[C@@H](N)CC(C)C)[C@@H](C)CC)C(C)C)C(N)=O
IC50 (Herpes simplex virus 1; viral entry, plaque reduction; Vero, F; 37 °C): 4.23 mg/L (≈ 2.53 µM)

NNC(=O)/C=C/c1ccc(N)cc1
LC50 (Aedes aegypti; larval mortality; 72 h, larva): 115 mg/L (≈ 651 µM)

O=[N+]([O-])c1ccc(/C=N/N=C/c2ccc(OCc3ccccc3)cc2)o1
day of death (Trypanosoma congolense; IL3000, mouse; oral, 100 mg/kg daily for 7 days, from day 4 post-infection): 10 days post-infection

O=C(CCNC(=O)c1ccsc1)Nc1cccc(Oc2ccc(Cl)cc2)c1
density of HBV DNA peak (hepatitis B virus; sucrose density gradient; HepG2.2.15.7, culture supernatant): 1.24 g/mL

Nc1ncnc2c1c(Cl)cn2[C@@H]1O[C@H](CO)[C@@H](O)[C@H]1O
EC50 (Trypanosoma congolense; parasite growth, resazurin; 6C3 diminazene-resistant; 48 h plus 24 h resazurin): 0.75 ± 0.14 µM

CCn1c2ccccc2c2cc(/C=N/NC(=O)Cn3ccc(=O)c4ccccc43)ccc21
inactivation activity (Tobacco mosaic virus; viral infectivity, in vivo plant; 500 µg/mL): 35.2 ± 4.8%

CCCc1ccc(C(=O)N2c3ccc(F)cc3[C@@H](Nc3ccccc3)C[C@H]2C)cc1
mortality (Aedes albopictus; 1 µM, 72 h, second-instar larvae; reference: Abbott-corrected control): 81 ± 8%

CC[C@H](C)[C@H](N)C1=N[C@H](C(=O)N[C@@H](CC(C)C)C(=O)N[C@H](CCC(=O)O)C(=O)N[C@H](C(=O)N[C@H]2CCCCNC(=O)[C@H](CC(N)=O)NC(=O)[C@@H](CC(=O)O)NC(=O)[C@H](Cc3c[nH]cn3)NC(=O)[C@@H](Cc3ccccc3)NC(=O)[C@H]([C@@H](C)CC)NC(=O)[C@@H](CCCN)NC2=O)[C@@H](C)CC)CS1
MIC90 (Enterococcus faecium; vanA clinical isolates; added: ZnSO4 0.3 mM): 64 mg/L (≈ 45 µM)

Nc1ccn(C[C@@H](CO)OCP(=O)(O)OCCCS(=O)(=O)CCCCCCCCCCCCC2CCC2)c(=O)n1
selectivity index (human gammaherpesvirus 8; qPCR; BCBL-1; reference: CC50 over EC50): 35

N#C[C@@]1(c2ccc3c(N)ncnn23)O[C@H](CO)[C@@H](O)[C@H]1O
EC90 (human respiratory syncytial virus; viral replication; HEp-2, A2): 2.84 µM

O=C(Cn1ccc(=O)c2ccccc21)N/N=C/c1cc(Br)c(O)c(Br)c1
inhibition (Phytophthora capsici; microbial growth; 50 µg/mL): 23.8%

C[C@@H]1C[C@H](Nc2ccccc2)c2cc(F)ccc2N1C(=O)c1ccccc1
mortality (Aedes albopictus; 1 µM, 72 h, second-instar larvae; reference: Abbott-corrected control): 56 ± 31%

Nc1ccn(C[C@@H](CO)OCP(=O)(O)OCCCS(=O)(=O)CCCCCCCCCCCCCC2CCC2)c(=O)n1
EC90 (human betaherpesvirus 5; drug-resistant clinical isolates): < 0.001 µM

COC(=O)C1=CO[C@@H](C)[C@@H]2Cn3ccc4c5ccccc5nc-4c3C[C@H]12
IC50 fold decrease (Plasmodium falciparum; parasite growth, [3H]-hypoxanthine incorporation; C2B atovaquone-resistant; 48 h; reference: 3D7 over C2B): 27 fold

N=C(N)NCCC[C@H](NC(=O)[C@H](Cc1c[nH]c2ccccc12)NC(=O)[C@H](CCCNC(=N)N)NC(=O)[C@H](CCCNC(=N)N)NC(=O)[C@@H]1CCCN1C(=O)[C@H](CCCCN)NC(=O)[C@@H](N)CCCNC(=N)N)C(=O)N[C@@H](Cc1c[nH]c2ccccc12)C(=O)N[C@@H](Cc1c[nH]c2ccccc12)C(=O)N1CCC[C@H]1C(=O)N[C@@H](CCCCN)C(=O)N[C@@H](CCCNC(=N)N)C(=O)N1CCC[C@H]1C(=O)O
serum cytokine level (Staphylococcus aureus; ELISA, refers to: IL-6; 09057, BALB/c mice, sepsis model; intraperitoneal, 20 mg/kg, 12 h; reference: saline): decreased

COc1ccc2c(c1)c1c3n2C(=O)CCC3N(Cc2ccccc2)CC1 (stereo not shown)
inhibition (canine distemper virus; viral replication; Vero; 10 µM, 24 h): > 90%

CC(C)C[C@H](NC(=O)[C@H](CC(=O)O)NC(=O)[C@H](CC(C)C)NC(=O)[C@H](CC(=O)O)NC(=O)CNC(=O)[C@@H]1CCCN1C(=O)[C@H](CCCCN)NC(=O)[C@H](CC(C)C)NC(=O)[C@H](Cc1c[nH]c2ccccc12)NC(=O)[C@@H]1CCCN1)C(=O)O
maximum inhibition (dengue virus type 2; plaque reduction; LLC-MK2, New Guinea C; 200 µM): 41.5 ± 20%

CC[C@H](C)[C@H](NC(=O)[C@H](CCCNC(=N)N)NC(=O)[C@@H]1CCCN1C(=O)[C@@H](NC(=O)[C@H](CO)NC(=O)[C@H](CCCCN)NC(=O)[C@H](CO)NC(=O)[C@H](CC(C)C)NC(=O)[C@H](CCCCN)NC(=O)[C@H](CC(C)C)NC(=O)[C@H](Cc1ccccc1)NC(=O)[C@H](Cc1ccccc1)NC(=O)CNC(=O)[C@@H]1CCCN1C(=O)[C@@H](NC(=O)[C@H](CCC(=O)O)NC(=O)[C@@H](N)CC(=O)O)[C@@H](C)O)C(C)C)C(N)=O
latency to ecdysis contractions (Aedes aegypti; agonist; pharate pupae; intra-abdominal injection, 10 fmol, 9-12 h before ecdysis): 8 to 9 min

OC[C@H]1O[C@@H](SCc2ccc(CS[C@@H]3O[C@H](CO)[C@H](O)[C@H](O)[C@H]3O)c3ccccc23)[C@H](O)[C@@H](O)[C@H]1O
viability (Trypanosoma brucei; parasite growth, flow cytometry; 5 µM, 24 h): 96.9%

CC[C@H](C)[C@H](NC(=O)[C@H](CO)NC(=O)[C@H](CO)NC(=O)[C@H](Cc1ccccc1)NC(=O)CN)C(=O)N[C@@H](Cc1ccccc1)C(=O)N[C@@H](CCCNC(=N)N)C(=O)NCC(=O)N[C@H](C(=O)N[C@@H](C)C(=O)N[C@@H](CCCCN)C(N)=O)C(C)C
MBC (Escherichia coli; ATCC 8739; added: 4 µM FeCl3): > 128 µM

CC[C@H](C)[C@H](NC(=O)[C@H](CCCCN)NC(=O)[C@H](CCCCN)NC(=O)[C@H](CC(C)C)NC(=O)[C@H](CCCCN)NC(=O)[C@H](CCC(=O)O)NC(=O)[C@H](CCCCN)NC(=O)[C@@H](NC(=O)[C@H](CCCCN)NC(=O)[C@H](CC(N)=O)NC(=O)[C@H](CCCNC(=N)N)NC(=O)[C@H](Cc1ccccc1)NC(=O)[C@H](CCCCN)NC(=O)[C@H](CCCNC(=N)N)NC(=O)[C@H](CC(C)C)NC(=O)[C@H](CCCNC(=N)N)NC(=O)[C@H](CCCCN)NC(=O)[C@H](CCCNC(=N)N)NC(=O)[C@H](CC(C)C)NC(=O)[C@@H](N)CCCNC(=N)N)[C@@H](C)CC)C(=O)NCC(=O)N[C@@H](CCC(N)=O)C(=O)N[C@@H](CCCCN)C(=O)N[C@H](C(=O)N[C@@H](CCC(N)=O)C(=O)NCC(=O)N[C@@H](Cc1ccccc1)C(=O)N[C@H](C(=O)N1CCC[C@H]1C(=O)N[C@@H](CCCCN)C(=O)N[C@@H](CC(C)C)C(=O)N[C@@H](CCC(N)=O)C(=O)N1CCC[C@H]1C(=O)N[C@@H](CO)C(=O)N[C@@H](CCCCN)C(=O)N[C@@H](CCC(N)=O)C(=O)N[C@@H](CO)C(=O)O)C(C)C)[C@@H](C)CC
lethal concentration (Streptomyces scabiei; inhibition zone; CGMCC 4.176; LB agar, overnight): 8.66 µM

CCCCc1ccc(C(=O)N2c3ccc(F)cc3[C@@H](Nc3ccccc3)C[C@H]2C)cc1
mortality (Aedes albopictus; 1 µM, 72 h, second-instar larvae; reference: Abbott-corrected control): 32 ± 5%

N=C(N)c1ccc(/C=C/c2ccc(C(=N)N)cc2O)cc1
MIC50 (Streptococcus mutans; growth): 179 ± 23 µM (≈ 50.2 µg/mL)

COc1ccc(-n2c(SCCCN3CCOCC3)nnc2[C@H](Cc2ccccc2)NC(=O)Cc2c(C)[nH]c3ccccc23)cc1
selectivity index (HIV-2; MT-4, wild type; reference: CC50 over EC50): 13

CCCCCc1ccc(C(=O)N2c3ccc(F)cc3[C@@H](Nc3ccccc3)C[C@H]2C)cc1
mortality (Aedes albopictus; 1 µM, 72 h, second-instar larvae; reference: Abbott-corrected control): 50 ± 3%

O=[N+]([O-])c1ccc(/C=N/N=C/c2ccc(Br)cc2)o1
day of death (Trypanosoma congolense; IL3000, mouse; oral, 100 mg/kg daily for 7 days, from day 4 post-infection): 10 days post-infection

Cc1ccc(C(=O)N2c3ccc(F)cc3[C@@H](Nc3ccccc3)C[C@H]2C)cc1
mortality (Aedes albopictus; 1 µM, 72 h, second-instar larvae; reference: Abbott-corrected control): 83 ± 4%

C[C@H]1COc2c(N3CCN(C)CC3)c(F)cc3c(=O)c(C(=O)N[C@@H](CCCNC(=N)N)C(=O)N[C@@H](Cc4ccc(-c5ccccc5)cc4)C(=O)N[C@@H](CCCNC(=N)N)C(=O)N[C@@H](Cc4ccc(-c5ccccc5)cc4)C(=O)N[C@@H](CCCNC(=N)N)C(N)=O)cn1c23
selectivity index (Enterococcus faecium; ATCC 2316; reference: IC50 MDCK cells over MIC): 17.6

Some of these lines once more:
Nc1ccn(C[C@@H](CO)OCP(=O)(O)OCCCS(=O)(=O)CCCCCCCCCCCCCC2CCC2)c(=O)n1
EC90 (human betaherpesvirus 5; drug-resistant clinical isolates): < 0.001 µM

COC(=O)C1=CO[C@@H](C)[C@@H]2Cn3ccc4c5ccccc5nc-4c3C[C@H]12
IC50 fold decrease (Plasmodium falciparum; parasite growth, [3H]-hypoxanthine incorporation; C2B atovaquone-resistant; 48 h; reference: 3D7 over C2B): 27 fold
